Measured values of several laboratories.
Each line is one published result; not all experiments were run side by side.

The half-life of CCOc1ccccc1-n1c(CN2CCNCC2)nc2ccccc2c1=O is reported as 1.15 h (C57BL/6 mouse, male, plasma; oral, 6 mg/kg).
Cc1sc2c(c1C)C(c1ccc(Cl)cc1)=N[C@@H](CC(=O)OC(C)(C)C)c1nnc(C)n1-2 has a half-life of 1.39 h (CD1 mouse, male, plasma; oral, 10 mg/kg).
With CN[C@H](CC(C)C)C(=O)N[C@H]1C(=O)N[C@@H](CC(N)=O)C(=O)N[C@H]2CN[C@H]3C(=O)N[C@H](C(=O)N[C@H](C(=O)NCCCNC(=N)N)c4cc(O)cc(O)c4-c4cc3ccc4O)[C@H](O)c3ccc(c(Cl)c3)Oc3cc2cc(c3O[C@@H]2O[C@H](CO)[C@@H](O)[C@H](O)[C@H]2O[C@H]2C[C@](C)(NCc3ccc(-c4ccc(Cl)cc4)cc3)[C@H](O)[C@H](C)O2)Oc2ccc(cc2Cl)[C@H]1O the half-life was 4.7 h (mouse; intravenous, 10 mg/kg).
For CCCCCCCCCCCCCCCC(=O)NCCCC[C@H](NC(=O)[C@H](CCC(=O)O)NC(=O)[C@H](Cc1ccc(O)cc1)NC(=O)[C@H](CCC(=O)O)NC(=O)COCC(=O)NCCCOCCOCCOCCCNC(=O)[C@H](Cc1ccccc1)NC(=O)[C@H](CC(N)=O)NC(=O)[C@H](Cc1c[nH]cn1)NC(=O)[C@@H](NC(=O)[C@H](CC(=O)O)NC(=O)[C@H](CCC(N)=O)NC(=O)[C@H](CC(C)C)NC(=O)[C@H](CCCCN)NC(=O)[C@H](CCCCN)NC(=O)[C@H](CCCNC(=N)N)NC(=O)[C@H](CC(C)C)NC(=O)[C@H](Cc1c[nH]c2ccccc12)NC(=O)[C@H](CCC(=O)O)NC(=O)[C@@H](NC(=O)[C@H](CCCNC(=N)N)NC(=O)[C@H](CCC(=O)O)NC(=O)[C@H](CCSC)NC(=O)[C@H](CO)NC(=O)[C@H](CC(N)=O)NC(=O)[C@H](CC(C)C)NC(=O)[C@H](Cc1c[nH]cn1)NC(=O)[C@H](CCCCN)NC(=O)CNC(=O)[C@H](CC(C)C)NC(=O)[C@H](CC(N)=O)NC(=O)[C@H](Cc1c[nH]cn1)NC(=O)[C@H](CCSC)NC(=O)[C@H](CC(C)C)NC(=O)[C@H](CCC(N)=O)NC(=O)[C@@H](NC(=O)[C@H](CCC(=O)O)NC(=O)[C@H](CO)NC(=O)[C@@H](NC(=O)[C@@H](N)CO)C(C)C)[C@@H](C)CC)C(C)C)C(C)C)C(=O)N[C@@H](CCC(=O)O)C(=O)N[C@@H](Cc1ccc(O)cc1)C(=O)N[C@@H](CCC(=O)O)C(N)=O, the half-life was 0.36 h (ELISA; CD-1 mouse, blood; intravenous, 10 nmol/kg, monophasic fit 0.03-7 h).
The half-life of CN[C@H](CC(C)C)C(=O)N[C@H]1C(=O)N[C@@H](CC(N)=O)C(=O)N[C@H]2C(=N)N[C@H]3C(=O)N[C@H](C(=O)N[C@H](C(=O)NCCC[N+](C)(C)C)c4cc(O)cc(O)c4-c4cc3ccc4O)[C@H](O)c3ccc(c(Cl)c3)Oc3cc2cc(c3O[C@@H]2O[C@H](CO)[C@@H](O)[C@H](O)[C@H]2O[C@H]2C[C@](C)(NCc3ccc(-c4ccc(Cl)cc4)cc3)[C@H](O)[C@H](C)O2)Oc2ccc(cc2Cl)[C@H]1O is reported as 3.3 h (mouse; intravenous, 50 mg/kg).
The half-life of CC(C)C[C@H](NC(=O)CNC(=O)[C@H](CCC(N)=O)NC(=O)[C@H](CC(C)C)NC(=O)[C@H](CC(C)C)NC(=O)[C@H](CCCNC(=N)N)NC(=O)[C@H](CCC(N)=O)NC(=O)[C@H](CC(C)C)NC(=O)[C@H](CCCNC(=N)N)NC(=O)[C@H](C)NC(=O)CNC(=O)[C@H](CCC(=O)O)NC(=O)[C@H](CCCNC(=N)N)NC(=O)[C@H](CC(C)C)NC(=O)[C@H](CCCNC(=N)N)NC(=O)[C@H](CO)NC(=O)[C@H](CC(C)C)NC(=O)[C@H](CCC(=O)O)NC(=O)[C@H](CO)NC(=O)[C@@H](NC(=O)[C@H](Cc1ccccc1)NC(=O)[C@@H](NC(=O)CNC(=O)[C@H](CC(=O)O)NC(=O)C(C)(C)NC(=O)[C@@H](N)Cc1c[nH]cn1)[C@@H](C)O)[C@@H](C)O)C(=O)N[C@@H](CC(C)C)C(=O)N[C@@H](CCC(N)=O)C(=O)NCC(=O)N[C@@H](CC(C)C)C(=O)N[C@H](C(=O)NCC(=O)N[C@@H](CCCCNC(=O)COCCOCCNC(=O)COCCOCCNC(=O)CC[C@H](NC(=O)CCCCCCCCCCCCCCCCC(=O)O)C(=O)O)C(N)=O)C(C)C is reported as at most 6 h (NMRI mouse, plasma).
O=C(c1cc(Cc2n[nH]c(=O)c3ccccc23)ccc1F)N1CC(CNC2CC2)C1 has a half-life of 0.97 h (female ICR mouse, plasma; oral, 60 mg/kg).
With CCC1CC(c2ccc(C(=O)O)cc2C)=NN1c1ccc(C#N)c(Cl)c1 (centres unmarked) the half-life was over 1 h (mouse or human, microsomes or hepatocytes).

Repeated from above:
The half-life of CCOc1ccccc1-n1c(CN2CCNCC2)nc2ccccc2c1=O is reported as 1.15 h (C57BL/6 mouse, male, plasma; oral, 6 mg/kg).
